Measured values from different studies.
Each numbered part is a random draw from the data of one study; scales do not carry over between parts. Changes are numbered by the printed parent chain.

Block 1
Target: Histone acetyltransferase KAT6A, both winged helices, GST fusion (KAT6A, Homo sapiens, UniProt Q92794, residues 1-181)
Method: protein binding microarray
Molecule type: double-stranded DNA, one strand shown
Matrix: in vitro
Concentration: not given
Setting: 8-mer, flanks averaged, mean of 2 arrays, mostly near background
Baseline: not given
Reading: higher = stronger binding
Residues (chain): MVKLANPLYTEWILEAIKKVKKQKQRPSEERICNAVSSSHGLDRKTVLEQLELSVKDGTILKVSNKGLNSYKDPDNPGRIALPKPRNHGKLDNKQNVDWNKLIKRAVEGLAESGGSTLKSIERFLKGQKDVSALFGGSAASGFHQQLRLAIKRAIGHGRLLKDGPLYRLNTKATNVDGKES
| Oligonucleotide | E-score |
| --- | --- |
| GACTTAAA | -0.0226 |
| ACAACCAG | 0.0153 |
| CTCTCCCA | -0.204 |
| CTGTCGCA | 0.0701 |
| GATCACCC | -0.138 |
| ACGTATGG | 0.00327 |
| AGGACAGC | -0.0297 |
| GCCGCACC | 0.195 |
| TATTCTGA | -0.0559 |
| GAAGCGCA | 0.275 |
| AGACAGAC | 0.0202 |
| CAAGAGAC | -0.0731 |
| ACCTTTCG | -0.0227 |
| ACTTGTAT | -0.092 |
| CAGTAGAG | -0.246 |
| GGCTATCA | 0.0622 |
| AGTGGCAG | -0.135 |
| GAAAGCTC | -0.144 |
| GCACGTGC | 0.0777 |
| AGGCACCT | -0.0729 |
| CAACTGGA | -0.165 |

Block 2
Target: Prothrombin, mature alpha-thrombin (F2, Homo sapiens, UniProt P00734)
Method: aptamer microarray, sandwich
Molecule type: DNA with 2'F-ANA
Matrix: in vitro
Concentration: 200 nM
Setting: whole 15-mer aptamer, many near background
With: Cy3 exosite-II aptamer, 400 nM
Reading: higher = stronger binding
Oligonucleotide: GGTTGGTGTGGTTGG
| Modification | mean fluorescence intensity |
| --- | --- |
| 2'F-ANA at 1 4 5 6 8 10 12 | 50.3 a.u. |
| 2'F-ANA at 1 2 3 5 6 9 10 14 15 | 45.8 a.u. |
| 2'F-ANA at 1 5 6 7 8 9 13 | 70.6 a.u. |
| 2'F-ANA at 3 5 8 10 12 13 | 63.2 a.u. |
| 2'F-ANA at 4 7 9 11 12 | 417 a.u. |
| 2'F-ANA at 1 8 9 10 11 12 13 | 66.2 a.u. |
| 2'F-ANA at 3 4 5 7 9 10 11 14 | 46.1 a.u. |
| 2'F-ANA at 1 2 6 7 8 9 10 11 12 14 15 | 72.3 a.u. |
| 2'F-ANA at 2 3 4 7 8 12 | 940 a.u. |
| 2'F-ANA at 3 4 6 9 | 626 a.u. |
| 2'F-ANA at 2 5 7 9 13 14 15 | 47.6 a.u. |
| 2'F-ANA at 2 3 5 6 8 9 11 | 101 a.u. |
| 2'F-ANA at 1 2 10 11 12 13 14 15 | 73.5 a.u. |
| 2'F-ANA at 1 2 4 5 12 13 15 | 84.8 a.u. |
| 2'F-ANA at 2 6 7 8 13 15 | 326 a.u. |
| 2'F-ANA at 1 4 6 7 8 11 12 13 14 | 55.8 a.u. |
| 2'F-ANA at 2 5 6 7 8 10 15 | 44.6 a.u. |
| 2'F-ANA at 2 4 6 7 8 9 10 11 12 | 149 a.u. |
| 2'F-ANA at 1 3 4 5 6 8 9 10 11 12 13 14 | 53.5 a.u. |
| 2'F-ANA at 1 2 6 7 8 9 11 12 13 14 | 68.4 a.u. |
| 2'F-ANA at 2 7 9 12 15 | 743 a.u. |
| 2'F-ANA at 3 4 5 7 8 10 11 14 15 | 52.9 a.u. |
| 2'F-ANA at 1 3 9 10 11 12 15 | 98.3 a.u. |
| 2'F-ANA at 2 5 6 7 8 11 14 | 48.7 a.u. |
| 2'F-ANA at 1 10 11 13 15 | 51.7 a.u. |

Block 3
Target: TATA-box-binding protein 1 (TBP1, Arabidopsis thaliana, UniProt P28147, residues 1-200, full length assumed)
Method: protein-binding microarray
Molecule type: double-stranded DNA, one strand shown
Matrix: in vitro
Concentration: not given
Setting: k-mer, scored over probes, only values ≥0.25
Reading: higher = stronger binding
Construct (chain): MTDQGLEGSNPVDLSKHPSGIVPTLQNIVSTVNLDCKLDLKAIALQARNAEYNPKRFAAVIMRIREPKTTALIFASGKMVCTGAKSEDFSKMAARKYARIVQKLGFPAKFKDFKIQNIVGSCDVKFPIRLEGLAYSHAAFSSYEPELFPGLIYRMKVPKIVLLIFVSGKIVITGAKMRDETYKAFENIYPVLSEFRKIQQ
| Oligonucleotide | E-score |
| --- | --- |
| ATAAAAG | 0.418 |
| ACTTTAT | 0.366 |
| TTATAAA | 0.475 |
| GATTAAA | 0.348 |
| ACATTAA | 0.263 |
| AAAATTT | 0.306 |
| ATAATGA | 0.296 |
| ATTTATA | 0.479 |
| ATATAAC | 0.46 |
| GGTAATA | 0.372 |
| CTGTATA | 0.318 |
| TCCTTAA | 0.261 |
| AAAATGT | 0.266 |
| CCATAAA | 0.315 |
| CGAAATA | 0.261 |

Block 4
Target: Centromere-binding protein 1, full length, N-terminal tag (CBF1, Saccharomyces cerevisiae, UniProt P17106, residues 1-351)
Chain of UniProt P17106 (whole entry, looked up): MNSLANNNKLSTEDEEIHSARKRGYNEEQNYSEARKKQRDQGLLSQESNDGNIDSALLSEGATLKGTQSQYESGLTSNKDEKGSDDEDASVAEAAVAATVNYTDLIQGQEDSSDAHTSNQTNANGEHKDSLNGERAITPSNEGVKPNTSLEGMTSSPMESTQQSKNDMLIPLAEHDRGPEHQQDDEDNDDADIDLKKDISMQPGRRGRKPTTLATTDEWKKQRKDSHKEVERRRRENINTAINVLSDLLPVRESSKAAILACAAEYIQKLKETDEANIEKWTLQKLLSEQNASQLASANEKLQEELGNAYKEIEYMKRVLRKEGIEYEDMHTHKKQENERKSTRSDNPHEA
Method: protein-binding microarray
Molecule type: double-stranded DNA, one strand shown
Matrix: in vitro
Concentration: 0.8 µM
Setting: whole 60-bp probe, no competitor
Reading: higher = stronger binding
Shared flanks, not repeated: … GTCTTGATTCGCTTGACGCTGCTG
| Oligonucleotide | fluorescence intensity [a.u.] |
| --- | --- |
| TGTACGAAGCTATCTCACGCTGATATAGTAGTTAGG | 511 |
| CTAGTCTTCTAGTGTCAGCTGTCTTACCTCACATTC | 644 |
| TGTACGAAGCTATTGCACGTACCTATAGTAGTTAGG | 518 |
| CTAGTATGAAGATAACGCGTGGTTCCGTGGAAATTC | 509 |
| GAATAGTTAATTAGTGATCATATGAAGTAATCATAG | 821 |
| CCTAACTACTATAACCATGTGATATAGCTTCGTACA | 1990 |
| GAATAAAGATGAGATCACGCCCAGATTTTGTCTTAG | 727 |
| CTATATATACATATTCACATGTTTCTCATTTTTTTC | 660 |
| CTAACTGAGACAGACTTCGTCACCGTGGAAGTATTC | 502 |
| CCTAACTACTATATACATGCGTGATAGCTTCGTACA | 601 |
| CCTAACTACTATATACATGTGTGATAGCTTCGTACA | 566 |
| CTAGTAATCGTTCATGTGGCAACTGTTTCAGTATTC | 534 |
| CTAAAACCCAAGCGCTATGATCACAAACGGCGATTC | 515 |
| CTACACATTGGTATCTTGGTGATGAAAAATGACTTC | 537 |
| TGTACGAAGCTATTGGACATGACTATAGTAGTTAGG | 518 |
| CTACCTAGCAACTCAGAGGTGATGAATTAAAAGTTC | 523 |
| GAAGTAACCTTCAATGATGTCACGAAACACGGATAG | 603 |
| TGTACGAAGCTATGTCATCATAGTATAGTAGTTAGG | 518 |
| CTAGCATAATATTAATACGTGTCACTCTCACTATTC | 578 |
| GAATGCCGGTGAGATCACGAGTAGCAGAAGAAATAG | 1250 |
| GAACTTCTTTGTTGTCACGCTTTTGTTATTTCCTAG | 1520 |

Block 5
Target: JUNB, bZIP domain (human)
Method: DHFR protein complementation
Matrix: yeast
Setting: single substitutions, most at no-binding floor
Baseline: wild-type JUN-FOS pair
Reading: higher = stronger binding
Parent: JUN, bZIP domain (human); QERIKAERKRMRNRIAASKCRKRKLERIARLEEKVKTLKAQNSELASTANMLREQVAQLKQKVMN; partner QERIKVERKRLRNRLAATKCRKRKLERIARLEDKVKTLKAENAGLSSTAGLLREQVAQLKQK
| Substitution | binding fitness [natural log] |
| --- | --- |
| E33N | -1.13 |
| A49T | -0.9 |
| L31G | -1.47 |
| E44V | -1.16 |
| I28Q | -1.28 |
| L38S | -1.53 |
| K36N | -1.21 |
| E32A | -1.26 |
| K36E | -1.23 |
| E33Q | -1.21 |
| L52M | -1.42 |
| K34E | -0.823 |
| E33A | -1.12 |
| E44Q | -1.18 |
| A49D | -1.6 |
| A40P | -1.51 |

Block 6
Target: RING finger protein unkempt homolog, zinc fingers 1-6, GST-SBP tag (UNK, Homo sapiens, UniProt Q9C0B0, residues 30-357)
Method: RNA Bind-n-Seq
Molecule type: RNA
Matrix: in vitro
Concentration: not given
Setting: RNA with constant flanks, ends assumed
Baseline: input RNA pool
Reading: higher = stronger binding
Shared flanks, not repeated: GGGAGUUCUACAGUCCGACGAUC … CAACAGAGGAUUGAGCAUCA
Target sequence (chain): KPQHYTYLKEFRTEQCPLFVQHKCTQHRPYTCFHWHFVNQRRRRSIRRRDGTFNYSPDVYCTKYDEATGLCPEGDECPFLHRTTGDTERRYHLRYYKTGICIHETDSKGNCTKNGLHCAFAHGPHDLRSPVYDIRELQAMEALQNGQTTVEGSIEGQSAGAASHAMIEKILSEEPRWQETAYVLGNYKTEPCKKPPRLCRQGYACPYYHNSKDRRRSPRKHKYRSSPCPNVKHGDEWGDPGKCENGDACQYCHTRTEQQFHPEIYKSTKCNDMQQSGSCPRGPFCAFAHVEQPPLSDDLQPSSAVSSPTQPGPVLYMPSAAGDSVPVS
| Oligonucleotide | bound/input enrichment [ratio] |
| --- | --- |
| CUCAAUGCAUUGACCAAGCAUGUCUCACCACUGAUAGGACGUUUUGUUCCCUUUGCUGCCGCCGCUGCUGCUAAUUGCAUUAAUAUUCCAUUAAUGAGGCAAAGGGAACUCAAAGUUGGC | 0.135 |
| GCUGCCAUGGCUGCAAGACCUCAUUCAAUUGAUGGGAGAGUAGUUGAGCCAAAACGUGCUGCCGCAAGAGAGGAAUCUGGAAAACCAGGGGCUCAUGUAACUGUGAAGAAGCUGUUUGUU | 0.178 |
| GAAGCCAUGAGUUAUGCUGAGGUCAUGAGGCUGGUGAAAGGCAUGAACUUCUCAGUGGCCGUGUUCGACACAGCACCCACCGGCCAUACACUCAGGCUCCUGAACUUCCCGACCAUCGUG | 0.116 |
| AAACUCAUCCUUAAAGGGGUCAUACUGCUGAUUGUGGACAAAGCCUUAGAAGAGCCAAAGUACCGCUCGCUGUAUGCUCAGCUAUGUCUGCGAUUGGCAGAAGAUGCACCAAACUUUGAU | 0.144 |
| AGGCAUUAUCUCAUUCAUACCGGUCAAAAGCCAUUUGAAUGUGAUGUGUGCCAUAAAAACUUCCGACAACUCGUUCAUCUGGAGAGGCAUCAGUUAACUCACAAUCUGCCUUUCAGUUGU | 0.057 |
| AAUGAUGUACAUUACUGUGAAUUUUUAUACCACUCAUUUUUAAAAGGGCUGUCUUUUCAUUUCCGUUUUCCAUACUGUGGUGGUGUACACAGGAUAGAACACCCUUUUUUAAAACACAGU | 0.216 |
| UUUUCAUGCCCGGCCUUUGUUCCUCCAUAAAUGUGUCCUUUAGUUUCAAACAGAUCUUUACCGUUCGUGCUUCAUAAGCCAAUUCUUAUUAUUAUUUUUGGGGGACUCUUCUUCAAAGAG | 3.07 |
| UAGACCAAAAAUUCUGAUGACCACAUCUAGAUUAUUUUUCUAUAAAAAAAUGAUUUUCACUACCGCGAUGUCAGUCACCACUAAGCUACUGUCCAAUUCCAUGUGAUGUGUAACUUUUAC | 0.972 |
| ACUGAAAUACUUAAUGAGCAAUUACUUGAUUUUUAAUGAUGACUUCGAAGGAGUCAUCACCCGGUGCUUUGUCCUUUUUGUAUUCUAGUUGCACCCACCUCUUGGAUUGGAUAUAGCAAU | 4.04 |
| AGAAAAUUGUGCUACAGUGUGUGUGUGCGUGUGUGUAUGUGUAGUGCUAGGAGUCCACAGCCGGUUGCUUGUCAAGCCAUUGCCGUGACAAUGGCAUCUCUUAUAUUGACCCAAAAACCA | 0.284 |
| GGACAUGAUUUGAGGGUGGGAACCUCGCAAGUUGUGACCUCUUGUUAACUUGGUCCCCAGAUCCGCCGGCCUUGGCCUUUCCAGCUGCCUUCAGUGCUGCGUGUUUGGUUCUCAGUUGUA | 0.17 |

Repeated from above (block 1):
| Oligonucleotide | E-score |
| --- | --- |
| GCACGTGC | 0.0777 |
| ACGTATGG | 0.00327 |
| TATTCTGA | -0.0559 |
| GCCGCACC | 0.195 |
| GATCACCC | -0.138 |
| GACTTAAA | -0.0226 |
| ACAACCAG | 0.0153 |
| CAACTGGA | -0.165 |
| ACCTTTCG | -0.0227 |
| AGGACAGC | -0.0297 |
| GAAGCGCA | 0.275 |
| CAGTAGAG | -0.246 |
